Measured values gathered from unrelated publications.
SLC6A4: Sodium-dependent serotonin transporter (SLC6A4, Homo sapiens, UniProt P31645)
Chain of UniProt P31645 (whole entry, unmodified, looked up): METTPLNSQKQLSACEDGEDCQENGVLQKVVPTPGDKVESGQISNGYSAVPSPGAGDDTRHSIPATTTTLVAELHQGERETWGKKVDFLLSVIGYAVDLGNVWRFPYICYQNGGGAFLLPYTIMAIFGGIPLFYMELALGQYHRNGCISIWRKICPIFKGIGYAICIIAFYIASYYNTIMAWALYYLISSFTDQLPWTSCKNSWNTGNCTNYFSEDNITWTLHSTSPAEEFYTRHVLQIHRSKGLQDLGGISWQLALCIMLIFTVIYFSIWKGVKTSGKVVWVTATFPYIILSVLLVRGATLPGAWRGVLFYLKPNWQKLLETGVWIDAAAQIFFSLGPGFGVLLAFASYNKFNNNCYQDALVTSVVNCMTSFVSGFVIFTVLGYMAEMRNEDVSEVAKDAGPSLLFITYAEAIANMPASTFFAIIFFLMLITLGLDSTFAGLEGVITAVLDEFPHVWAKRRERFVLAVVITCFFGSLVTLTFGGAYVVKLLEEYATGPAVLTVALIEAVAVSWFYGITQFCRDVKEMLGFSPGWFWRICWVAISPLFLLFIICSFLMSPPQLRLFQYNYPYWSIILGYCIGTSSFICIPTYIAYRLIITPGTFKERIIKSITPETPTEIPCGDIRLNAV

The IC50 of `C[C@@H]1NC(C)(C)CO[C@H]1c1cccc(Br)c1` is reported as 0.39 µM (SLC6A4; transporter uptake, inhibitor, radiometric).
With `CNC(C)Cc1ccc2c(c1)OCO2` (stereo not drawn) the IC50 was 0.118 µM (SLC6A4; transporter uptake, inhibitor, radiometric).
`CNC(C)Cc1ccc2c(c1)OCO2` (stereo not drawn) gave a Ki of 14.7 µM (SLC6A4; ligand displacement, radioligand; cell membranes).
For `CCCC(NC)C(=O)c1ccc(C)cc1` (stereo not drawn), the IC50 was 0.532 µM (SLC6A4; transporter uptake, inhibitor, radiometric).
With `CCc1ccc2[nH]c3nc(SCCNS(=O)(=O)c4ccc(NC(C)=O)cc4)nnc3c2c1` the IC50 was 192 µM (SLC6A4; transporter uptake, inhibitor, radiometric).
With `C[C@H]1[C@H](c2cccc(Cl)c2)OCC(C)(C)N1C` the IC50 was 0.54 µM (SLC6A4; transporter uptake, inhibitor, radiometric).
The Ki of `CCCNC(C)C(=O)c1ccc2c(c1)OCO2` (stereo not drawn) is reported as 13.3 µM (SLC6A4; ligand displacement, radioligand; cell membranes).
For `CCC[C@@H]1NC(C)(C)CO[C@H]1c1cccc(Cl)c1`, the IC50 was 0.3 µM (SLC6A4; transporter uptake, inhibitor, radiometric).
For `CCNC(C)C(=O)c1ccc(Cl)cc1` (stereo not drawn), the Ki was 7.9 µM (SLC6A4; ligand displacement, radioligand; cell membranes).
`C=C[C@H]1CN2CC[C@H]1C[C@H]2[C@H](O)c1ccnc2ccccc12` gave a Ki of 15 µM (SLC6A4 (Homo sapiens, UniProt P31645, Y95F); transporter uptake, inhibitor, radiometric).
The IC50 of `CCN1[C@@H](C)[C@H](c2cccc(Cl)c2)OCC1(C)C` is reported as 1.5 µM (SLC6A4; transporter uptake, inhibitor, radiometric).
With `CCC(NC)C(=O)c1ccc2c(c1)OCO2` (stereo not drawn) the Ki was 10.5 µM (SLC6A4; ligand displacement, radioligand; cell membranes).
